Measured values gathered from unrelated publications.
Lines come from different studies, so protocols differ. Several values in a cell are separate wells, animals, samples, runs or records. Numbers after ± are the reported error. Where no end group is shown, it is not given here. Ends that are not written are not given here. No end group written: not given here. [ ]: non-standard residue; d: D form. * marks the point of attachment. *: point of attachment.
IKBKG 2-419 C11A/C76A/C95A/C131A/C167A: IKBKG 2-419 C11A/C76A/C95A/C131A/C167A (Homo sapiens, UniProt Q9Y6K9)
T1: NR1I2/RXRA (Homo sapiens); chain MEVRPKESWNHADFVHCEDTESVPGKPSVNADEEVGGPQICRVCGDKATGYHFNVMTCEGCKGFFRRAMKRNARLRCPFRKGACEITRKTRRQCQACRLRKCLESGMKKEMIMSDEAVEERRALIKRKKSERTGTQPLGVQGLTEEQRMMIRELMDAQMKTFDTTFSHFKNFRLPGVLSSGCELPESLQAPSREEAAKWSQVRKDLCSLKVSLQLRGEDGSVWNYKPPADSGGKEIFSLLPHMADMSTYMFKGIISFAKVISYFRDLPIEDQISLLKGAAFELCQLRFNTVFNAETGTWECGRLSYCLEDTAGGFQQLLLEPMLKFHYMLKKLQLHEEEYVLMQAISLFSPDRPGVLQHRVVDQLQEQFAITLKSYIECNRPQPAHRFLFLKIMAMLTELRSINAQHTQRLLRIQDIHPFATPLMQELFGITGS; chain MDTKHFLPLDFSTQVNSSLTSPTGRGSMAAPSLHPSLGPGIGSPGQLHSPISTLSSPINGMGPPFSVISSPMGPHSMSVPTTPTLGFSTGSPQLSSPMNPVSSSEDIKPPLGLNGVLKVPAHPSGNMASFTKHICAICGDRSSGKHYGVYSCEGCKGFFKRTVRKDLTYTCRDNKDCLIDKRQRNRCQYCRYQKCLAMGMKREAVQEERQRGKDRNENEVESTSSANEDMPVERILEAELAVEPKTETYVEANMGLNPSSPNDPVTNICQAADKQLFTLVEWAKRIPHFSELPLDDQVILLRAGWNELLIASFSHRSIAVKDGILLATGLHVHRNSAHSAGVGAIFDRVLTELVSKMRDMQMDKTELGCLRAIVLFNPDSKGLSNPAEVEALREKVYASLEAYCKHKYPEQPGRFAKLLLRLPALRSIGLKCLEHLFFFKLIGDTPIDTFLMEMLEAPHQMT
B1: Scn2a 1080-1203 (UniProt P04775); CK2-phosphorylated; sequence looked up; chain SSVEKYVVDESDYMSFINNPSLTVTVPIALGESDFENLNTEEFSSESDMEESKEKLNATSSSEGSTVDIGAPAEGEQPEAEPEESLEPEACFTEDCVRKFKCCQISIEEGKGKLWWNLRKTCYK
B2: CABP1 N-terminal lobe (Homo sapiens); chain DRSLRPEEIEELREAFREFDKDKDGYINCRDLGNCMRTMGYMPTEMELIELSQQINMNLGGHVDFDDFVELMGPKLLAET
B3: PPP1CB (Homo sapiens, UniProt P62140); sequence looked up; chain MADGELNVDSLITRLLEVRGCRPGKIVQMTEAEVRGLCIKSREIFLSQPILLELEAPLKICGDIHGQYTDLLRLFEYGGFPPEANYLFLGDYVDRGKQSLETICLLLAYKIKYPENFFLLRGNHECASINRIYGFYDECKRRFNIKLWKTFTDCFNCLPIAAIVDEKIFCCHGGLSPDLQSMEQIRRIMRPTDVPDTGLLCDLLWSDPDKDVQGWGENDRGVSFTFGADVVSKFLNRHDLDLICRAHQVVEDGYEFFAKRQLVTLFSAPNYCGEFDNAGGMMSVDETLMCSFQILKPSEKKAKYQYGGLNSGRPVTPPRTANPPKKR
B4: CPT1A 381-469 W452A (Rattus norvegicus, UniProt P32198); Cy3 label; sequence looked up; chain AALTAADRVPWAKCRQTYFARGKNKQSLDAVEKAAFFVTLDESEQGYREEDPEASIDSYAKSLLHGRCFDRAFDKSITFVVFKNSKIGI
B5: Adgrl3 199-495 (Mus musculus, UniProt Q80TS3); sequence looked up; chain KVFLCPGLLKGVYQSEHLFESDHQSGAWCKDPLQASDKIYYMPWTPYRTDTLTEYSSKDDFIAGRPTTTYKLPHRVDGTGFVVYDGALFFNKERTRNIVKFDLRTRIKSGEAIIANANYHDTSPYRWGGKSDIDLAVDENGLWVIYATEQNNGKIVISQLNPYTLRIEGTWDTAYDKRSASNAFMICGILYVVKSVYEDDDNEATGNKIDYIYNTDQSKDSLVDVPFPNSYQYIAAVDYNPRDNLLYVWNNYHVVKYSLDFGPLDSRSGPVHHGQVSYISPPIHLDSELERPPVRGI
B6: IGFL3 24-125 (Homo sapiens, UniProt Q6UXB1); chain GTTDAPVGSGLWLCQPTPRCGNKIYNPSEQCCYDDAILSLKETRRCGSTCTFWPCFELCCPESFGPQQKFLVKLRVLGMKSQCHLSPISRSCTRNRRHVLYP
B7: UGT1A9 (Homo sapiens, UniProt O60656); chain GKLLVVPMDGSHWFTMRSVVEKLILRGHEVVVVMPEVSWQLGRSLNCTVKTYSTSYTLEDLDREFKAFAHAQWKAQVRSIYSLLMGSYNDIFDLFFSNCRSLFKDKKLVEYLKESSFDAVFLDPFDNCGLIVAKYFSLPSVVFARGILCHYLEEGAQCPAPLSYVPRILLGFSDAMTFKERVRNHIMHLEEHLLCHRFFKNALEIASEILQTPVTEYDLYSHTSIWLLRTDFVLDYPKPVMPNMIFIGGINCHQGKPLPMEFEAYINASGEHGIVVFSLGSMVSEIPEKKAMAIADALGKIPQTVLWRYTGTRPSNLANNTILVKWLPQNDLLGHPMTRAFITHAGSHGVYESICNGVPMVMMPLFGDQMDNAKRMETKGAGVTLNVLEMTSEDLENALKAVINDKSYKENIMRLSSLHKDRPVEPLDLAVFWVEFVMRHKGAPHLRPAAHDLTWYQYHSLDVIGFLLAVVLTVAFITFKCCAYGYRKCLGKKGRVKKAHKSKTH

| Substance | tested on | assay | system | setting | scale | measurement | value |
| --- | --- | --- | --- | --- | --- | --- | --- |
| 5FAM-GCLVL (RHOA residues 189-193 (Homo sapiens); N-terminal 5-FAM; 5FAM = O=C1OC2(c3ccc(O)cc3Oc3cc(O)ccc32)c2ccc(C(=O)*)cc21) | RAP1GDS1 (Homo sapiens, UniProt P52306-1) | fluorescence polarization | peptide | – | – | Kd | 61000 ± 20000 nM |
| [dA]VIA (D-Ala1) | PC-12 | protection from Aβ1–42 toxicity, MTT | – | concentration not given, 6 h, Aβ to peptide ratio 1:10, with: Aβ1–42 2 µM | baseline: untreated cells | cell viability | 70% |
| PAKKSEELVAEAHNLSTLLENAIQATVREQDQSFTALDWSWLQTE (IKBKB 701-745 C716S/D725A (Homo sapiens, UniProt O14920); sequence looked up) | IKBKG 2-419 C11A/C76A/C95A/C131A/C167A | competition with labelled peptide, fluorescence polarisation | – | pH 7.4 | – | Kd | 5.9 nM |
| B1 (Scn2a 1080-1203) | ANK2 1-957 (Homo sapiens, UniProt Q01484-2) | SPR | – | pH 7.4, 25 °C, NaCl 150 mM | – | Kd | 1.2 nM |
| fus1 fragment (Schizosaccharomyces pombe) (sequence not shown) | ACTA1 filaments (UniProt P68135) | co-sedimentation | – | – | – | Kd | 100 nM |
| KELVALTPPSPFRD (Grm5) | Homer1a | ITC | peptide | – | – | Kd | 16400 ± 200 nM |
| B2 (CABP1 N-terminal lobe) | CACNA1C IQ domain three CaM anchors to alanine (Homo sapiens) | ITC | – | pH 7.4, KCl 5 mM, with: CaCl2 1 mM | – | Kd | > 5000 nM |
| TCAGCTGAATGAACTTGCTGACCC (dsDNA) | T1, NR1I2/RXRA (Homo sapiens) | fluorescence anisotropy competition | double-stranded DNA, one strand shown | with: DR3 FAM | – | Ki | 95.6 ± 4.7 nM |
| LDRQEEEEALQDQKRREEELGRIMVNAFDDLLDEENTIDS (asl 21-60 (Drosophila melanogaster, UniProt Q9VNE4); sequence looked up) | zyg-1 cryptic polo box 338-564 (Caenorhabditis elegans, UniProt Q9GT24) | MST | – | – | – | Kd | 197000 nM |
| VGVK(Me3)KPL-NH2 (H3 peptide residues 33-39 G33V/H39L; K36me3, C-terminal amide; Me3 = trimethyl (on lysine, Kme3)) | PHF1 25-87 (Homo sapiens, UniProt O43189-1) | ITC | peptide | pH 7.5, 25 °C, NaCl 150 mM | – | Kd | 16300 nM |
| MGDSILSQAEIDALLN (fliM residues 1-16 (Escherichia coli)) | cheY 2-129 E89R (Escherichia coli, UniProt P0AE67) | fluorescence titration | peptide | pH 7.0, one-site model | – | Kd | 180000 nM |
| B3 (PPP1CB) | SHOC2 (Homo sapiens, UniProt Q9UQ13) | BLI | – | steady state | – | Kd | 11000 nM |
| B4 (CPT1A 381-469 W452A) | Fabp1, Cy5 label (Mus musculus, UniProt P12710) | FRET | – | 24 °C | – | Kd | 28 nM |
| PAKKSEELVAEAHNLSTLLENAIQDTVREQDQSATALDWSWLQTE (IKBKB 701-745 C716S/F734A (Homo sapiens, UniProt O14920); sequence looked up) | IKBKG 2-419 C11A/C76A/C95A/C131A/C167A | competition with labelled peptide, fluorescence polarisation | – | pH 7.4 | – | Kd | 180 nM |
| B5 (Adgrl3 199-495) | FLRT3 LRR domain 29-386, N-linked glycosylation (Mus musculus, UniProt Q8BGT1) | ITC | – | pH 7.0, 25 °C, NaCl 150 mM | – | Kd | 16.9 nM and 17 nM |
| {FITC}-SARWRFPARPGTTGGGGGGGRRGLGGAPRQRVPALLLPPGY (KMT2A 4-43 C-A; N-terminal FITC; FITC = O=C1OC2(c3ccc(O)cc3Oc3cc(O)ccc32)c2ccc(NC(=S)*)cc21) | MEN1 M327I (Homo sapiens, UniProt O00255-1) | fluorescence polarisation | peptide | – | – | Kd | 0.91 nM |
| ARTKQTARKSTG (Histone H3.1 2-13 (Homo sapiens, UniProt P68431); sequence looked up) | CHD3 373-427 (Homo sapiens, UniProt Q12873) | fluorescence titration | peptide | pH 7.5, 25 °C, NaCl 150 mM, apparent | – | Kd | 75000 nM |
| V[dV]IA (D-Val2) | PC-12 | protection from Aβ1–42 toxicity, MTT | – | concentration not given, 6 h, Aβ to peptide ratio 1:1, with: Aβ1–42 2 µM | baseline: untreated cells | cell viability | 70% |
| B6 (IGFL3 24-125) | IGFLR1 23-159 (Homo sapiens, UniProt Q9H665) | SPR | – | pH 7.4, 25 °C, NaCl 0.15 M | – | Kd | 0.085 nM |
| B7 (UGT1A9) | COc1ccc2c(=O)c(-c3ccccc3)coc2c1O | steady-state kinetics | – | pH 7.4, 37 °C | – | Vmax/Km | 3730 µL/min/mg |
| Insulin human | – | – | rat, olfactory bulb | intranasal, 20 µg per nostril, 60 min | – | brain concentration | 134 ± 54.4 pg/mg tissue |
| {FITC}-PAKKSEELVAEAHNLSTLLENAIQDTVREQDQSFTALDWSWLQTE (IKKβ 701-745 C716S (UniProt O14920); FITC label; FITC = O=C1OC2(c3ccc(O)cc3Oc3cc(O)ccc32)c2ccc(NC(=S)*)cc21; sequence looked up) | IKBKG C11A/C76A/C95A/C131A/C167A (Homo sapiens, UniProt Q9Y6K9) | fluorescence polarisation | peptide | reduced, with: DTT 10 mM | – | Kd | 54 nM |

For quick reference, copied from above:
| Substance | tested on | assay | system | setting | scale | measurement | value |
| --- | --- | --- | --- | --- | --- | --- | --- |
| 5FAM-GCLVL (RHOA residues 189-193 (Homo sapiens); N-terminal 5-FAM; 5FAM = O=C1OC2(c3ccc(O)cc3Oc3cc(O)ccc32)c2ccc(C(=O)*)cc21) | RAP1GDS1 (Homo sapiens, UniProt P52306-1) | fluorescence polarization | peptide | – | – | Kd | 61000 ± 20000 nM |
| VGVK(Me3)KPL-NH2 (H3 peptide residues 33-39 G33V/H39L; K36me3, C-terminal amide; Me3 = trimethyl (on lysine, Kme3)) | PHF1 25-87 (Homo sapiens, UniProt O43189-1) | ITC | peptide | pH 7.5, 25 °C, NaCl 150 mM | – | Kd | 16300 nM |
